Published values pooled from the literature.
Each numbered part is a random draw from the data of one study; scales do not carry over between parts. “And” joins repeats or separate records; there may be more than shown. ± gives the spread as reported.

Set 1 — cell line: HEK-293T; observed: pseudovirus infection; technique: FDA-approved drug library screen; organism: VSV pseudotyped with SARS-CoV-2 spike; concentration: 10 µM; time: 16 h; baseline: vehicle-treated
SMILES	GFP-positive cells
C=CC1=C(C(=O)O)N2C(=O)[C@@H](NC(=O)/C(=N\O)c3csc(N)n3)[C@H]2SC1	94.4%
CC1(C)O[C@@H]2[C@@H](CO[C@@]3(COS(N)(=O)=O)OC(C)(C)O[C@@H]23)O1	89.7%
Oc1ccc(OCc2ccccc2)cc1	65.2%

Set 2 — cell line: mouse MPNST tumor cells; technique: high-content immunofluorescence imaging; item: nuclear SOX9; concentration: 10 µM; time: 12 h; notes: mean of 2 replicates; baseline: DMSO control; reading: higher = more nuclear SOX9
SMILES	nuclear SOX9 intensity
COc1cc2c(cc1OC)C1CC(=O)C(CC(C)C)CN1CC2 (centres unmarked)	112 % of DMSO and 84.7 % of DMSO
C=C(C)[C@@H]1[C@H]2OC(=O)[C@@H]1[C@]1(O)C[C@H]3O[C@]34C(=O)O[C@H]2[C@]14C	98.8 % of DMSO
OC1CCCCC1N1CCC(c2ccccc2)CC1 (centres unmarked)	104 % of DMSO

Set 3 — observed: enzyme activity; action: inhibitor; concentration: 20 µM; notes: hit confirmation, with DTT
Target: Replicase polyprotein 1ab, main protease (rep, Severe acute respiratory syndrome coronavirus 2, UniProt P0DTD1)
SMILES	inhibition
O=C(O)[C@H]1O[C@@H](Oc2cc3oc(-c4ccccc4)cc(=O)c3c(O)c2O)[C@H](O)[C@@H](O)[C@@H]1O	-10.9%
S=C=NCc1ccccc1	77.7%
O=C(NCCCNc1nc(Nc2cccc(NC(=O)N3CCCC3)c2)ncc1I)c1cccs1	-23.3%

Set 4 — action: inhibitor; concentration: 20 µM
Target: Replicase polyprotein 1ab, nsp13 helicase (rep, Severe acute respiratory syndrome coronavirus 2, UniProt P0DTD1)
SMILES	inhibition
CCCCS(=O)(=O)N[C@@H](Cc1ccc(OCCCCC2CCNCC2)cc1)C(=O)O	4.52%
CCCCC(CC)CCC(CC(C)C)OS(=O)(=O)O (centres unmarked)	82.2%
CC(=O)NC(Cc1ccccc1)C(=O)O (centres unmarked)	4.02%
C=C1CC/C=C(/C)CC[C@@H]2[C@@H]1CC2(C)C	10.5%
O=C(O)C(O)[C@H](O)[C@@H](O)[C@H](O)[C@H](O)CO (some centres unmarked)	0.64%
Cn1nc(-c2ccc(C(F)(F)F)cc2)nc2c(=O)n(C)c(=O)nc1-2	11.3%
O=[N+]([O-])c1cncn1CCN1CCOCC1	0.91%
CCOC(=O)Nc1ccc2c(c1)N(C(=O)CN(CC)CC)c1ccccc1CC2	5.27%
COc1c2ccoc2cc2oc(=O)ccc12	2%
O=C(Nc1cccnc1)c1cc(-c2ccnc(F)c2)ccc1OCc1ccccc1	6.82%
Nc1ncnc2c1ncn2[C@@H]1O[C@H](CO)C[C@H]1O	6.8%
C[C@]12CC[C@H](O)CC1=CC[C@@H]1[C@@H]2CC[C@]2(C)C(=O)CC[C@@H]12	5.42%
O=C(O)COCCN1CCN(C(c2ccccc2)c2ccc(Cl)cc2)CC1 (centres unmarked)	5.33%
CC(=O)c1ccc2c(c1)N(CCCN1CCN(CCO)CC1)c1ccccc1S2	18.2%
CC[C@@H](Nc1c(Nc2cccc(C(=O)N(C)C)c2O)c(=O)c1=O)c1ccc(C)o1	2.15%
CCOC(=O)C1=C(COCCN)NC(C)=C(C(=O)OC)C1c1ccccc1Cl (centres unmarked)	7.1%
Brc1c(NC2=NCCN2)ccc2nccnc12	22.1%
N[C@@H](Cn1oc(=O)[nH]c1=O)C(=O)O	3.73%
Cn1c2c(c3ccccc31)CCNCC2	8.46%
Clc1ccc(N2CCN(Cc3c[nH]c4ncccc34)CC2)cc1	2.2%
CC[N+](C)(CC)CCOC(=O)C1c2ccccc2Oc2ccccc21	8.86%
COC(=O)C1=C(C)NC(C)=C(C(=O)O[C@@H]2CCCN(Cc3ccccc3)C2)[C@@H]1c1cccc([N+](=O)[O-])c1 (racemic)	0.79%
CC(=O)NC[C@H]1CN(c2ccc(-c3ccc(CNCc4cnn[nH]4)cc3)c(F)c2)C(=O)O1	6.22%
Cc1nc(C)c(C)nc1C	1.61%
CN(C)C(=O)Nc1cccc(-c2ccc(N(C)C)cc2)c1	3.13%

Other studies, line by line
Spike glycoprotein: Spike glycoprotein (Severe acute respiratory syndrome coronavirus 2, UniProt P0DTC2)
rep main protease: Replicase polyprotein 1ab, main protease (rep, Severe acute respiratory syndrome coronavirus 2, UniProt P0DTD1)
Structure (SMILES)	target or system	assay	system	conditions	measurement	value
CN(C)C1CCN(C(=O)c2cc3ccccc3n2C)CC1	Marburg virus	pseudovirus entry	A549	–	EC50	> 100 µM
CC(C)(C)[C@H](NC(=O)C(F)(F)F)C(=O)N1C[C@H]2[C@@H]([C@H]1C(=O)N[C@H](C#N)C[C@@H]1CCNC1=O)C2(C)C	–	–	human, fasted	150 mg single dose	Vz/F, geometric mean	191 L
CC(C)(O)[C@H]1CC[C@@](C)([C@H]2[C@@H](O)C[C@@]3(C)[C@@H]4C[C@H](O[C@@H]5O[C@H](CO)[C@@H](O)[C@H](O)[C@H]5O)[C@H]5C(C)(C)[C@@H](O[C@@H]6OC[C@@H](O)[C@H](O)[C@H]6O)CC[C@@]56C[C@@]46CC[C@]23C)O1	Spike glycoprotein	binding, biolayer interferometry	–	–	Kd	111 µM
Cc1conc1C(=O)N1Cc2ccccc2C[C@H]1CNC(=O)c1cccc2[nH]ncc12	rep main protease	enzyme activity, inhibitor	–	5 µM, run 1	inhibition	9.9%
COc1cc(C2C(C#N)=C(N)Oc3c2c(C)nn3-c2ccc(Cl)cc2)cc(OC)c1OC (centres unmarked)	SARS-CoV-2	viral replication	Vero	10 µM	inhibition	77.7%
CC(C)(C)[C@H](NC(=O)C(F)(F)F)C(=O)N1C[C@@H]2CCC[C@@H]2[C@H]1C(=O)N[C@H](C#N)C[C@@H]1CCNC1=O	SARS-CoV-2	viral replication, qRT-PCR viral RNA	Vero E6	10 µM	inhibition	90%
CC(C)[C@H](NC(=O)[C@@H](NC(=O)[C@H](CC(=O)O)NC(=O)[C@H](CO)NC(=O)[C@@H](N)CCC(N)=O)[C@@H](C)O)C(=O)N[C@@H](Cc1ccccc1)C(=O)N[C@@H](CC(=O)O)C(=O)N[C@@H](Cc1ccc(O)cc1)C(=O)N[C@@H](Cc1ccc(O)cc1)C(=O)O	HLA class I histocompatibility antigen, A alpha chain, allele A*01:01 (Homo sapiens, UniProt P04439)	biochemical	–	–	IC50	0.00046 µM
CN(C)c1ccc(N(Cc2cc(Cl)cs2)C(=O)Cc2cncc3ccccc23)cc1	SARS-CoV-2	nucleocapsid staining	Caco-2, Omicron BA.5	–	EC50	0.1 ± 0.09 µM
C=C[C@@H]1C[C@]1(NC(=O)[C@@H]1C[C@@H]2CN1C(=O)[C@H](C(C)(C)C)NC(=O)O[C@@H]1C[C@H]1CCCCCc1nc3ccc(OC)cc3nc1O2)C(=O)NS(=O)(=O)C1CC1	SARS-CoV-2	viral replication, immunofluorescence, item: nucleoprotein	Vero E6	–	IC50	10.8 µM
Cc1ncc(/C=C\C(=O)N2C[C@@H](NC(=O)c3ccc[nH]c3=O)CC3(CCOCC3)C2)c(=O)[nH]1	rep main protease	enzyme activity	–	5 µM, mean of runs	inhibition	15.7%
O=c1cc(-c2ccc(O)c(O)c2)oc2cc(O)cc(O)c12	Spike glycoprotein	binding, biolayer interferometry	–	–	Kd	97 µM
CN1CCCC(CN2c3ccccc3Sc3ccccc32)C1 (centres unmarked)	SARS-CoV-2	viral replication, GFP plate reader screen	–	cell-based	EC50	> 20 µM
N#C[C@@]1(c2ccc3c(N)ncnn23)O[C@H](CO)[C@@H](O)[C@H]1O	SARS-CoV-2	viral replication	Vero E6	96 h	EC50	< 0.8 µM
COc1cc2c(Oc3ccc4[nH]c(C)cc4c3F)ccnc2cc1OCC1(N)CC1	SARS-CoV-2	viral replication, high-content imaging screen	–	cell-based	EC50	> 100 µM
Cc1cc(/C=C/C#N)cc(C)c1Nc1nc(Nc2ccc3cc(C#N)ccc3c2)ncc1N	HIV-1	viral replication, single-round infection	RT mutant V106A/L234I	–	EC50	0.0257 ± 0.0021 µM
CCC(CC)COC(=O)[C@H](C)N[P@](=O)(OC[C@H]1O[C@@](C#N)(c2ccc3c(N)ncnn23)[C@H](O)[C@@H]1O)Oc1ccccc1	SARS-CoV-2	viral replication, plaque assay and RT-qPCR	Vero E6	–	effective concentration	≥ 3 µM
